Measured values pooled from the literature.
Lines come from different studies, so protocols differ. ± marks the error that the study gave.

`C/C=C1\NC(=O)[C@@H](NC(=O)[C@@H](NC(=O)[C@@H](COS(=O)(=O)O)OC)C(C)C)[C@@H](C)OC(=O)[C@H]([C@H](C)CC)NC(=O)[C@H](Cc2ccccc2)N(C)C(=O)[C@H](Cc2ccccc2)N2C(=O)[C@H](CC[C@H]2O)NC1=O` gave an IC50 of no less than 10 µM (serine proteases panel).
For `COc1cc([C@@H]2c3cc4c(cc3[C@H](O)[C@H]3COC(=O)[C@H]23)OCO4)cc(OC)c1OC`, the IC50 was 1.6 ± 0.02 µM (tubulin, bovine brain; tubulin assembly, inhibitor; 37 °C, tubulin 5 µM, 2% DMSO, with: paclitaxel 5 µM).
The IC50 of `C[C@H]1CCCC(=O)N(C)/C=C/CC[C@@H](C)C(=O)O[C@H](C(C)(C)C)C1` is reported as greater than 10 µM (voltage-gated sodium channels; veratridine-stimulated Na+ influx, antagonist, SBFI fluorescence; primary mouse cerebrocortical neurons).
For `O=C/C=C/c1ccccc1`, the IC50 was 550 µM (lysine-containing peptide; peptide depletion, mass spectrometry; 24 h, pH 10.2, room temperature, with: lysine peptide 0.5 mM).
`COc1cc2c(cc1OC)-c1cc3ccc(OC)c(OC)c3c[n+]1CC2` has an IC50 of 27 µM (class I HDAC; enzyme activity; bovine heart lysate).
`C[C@H](CCCC(N)=O)C[C@@H](OC(=O)[C@H](C)CC/C=C/I)C(C)(C)C` gave an IC50 of greater than 10 µM (voltage-gated sodium channels; veratridine-stimulated Na+ influx, antagonist, SBFI fluorescence; primary mouse cerebrocortical neurons).
The IC50 of `C=C1C(=O)O[C@H]2[C@H]1CC/C(C)=C/CC[C@@]1(C)O[C@@H]21` is reported as 8.35 µg/mL (Sp1 (human); reporter gene, inhibitor; SW1353; control transcription factor).
`NCC1OC(OC2C(CO)OC(OC3C(O)C(N)CC(N)C3OC3OC(CO)C(OCCCc4ccccc4)C(O)C3N)C2O)C(N)C(O)C1O` (centres unmarked) gave an IC50 of 51.3 ± 15.7 µg/mL (Mycobacterium smegmatis ribosome G1491A; translation, cell-free luciferase synthesis).
The IC50 of `NC[C@H]1O[C@H](O[C@H]2[C@H](O)[C@@H](O[C@H]3O[C@H](CSc4ccccc4F)[C@@H](O)[C@H](N)[C@H]3O)[C@H](N)C[C@@H]2N)[C@H](N)C[C@@H]1O` is reported as less than 1 µM (Escherichia coli ribosome, wild type; EF-G-dependent translocation, inhibitor, toeprinting; first inflection, biphasic fit).
For `COc1cc(/C=C/c2ccccc2)cc(OC)c1`, the IC50 was greater than 25 µg/mL (Sp1 (human); reporter gene, inhibitor; SW1353; control transcription factor).
For `NC[C@@H]1O[C@H](O[C@H]2[C@@H](O)[C@H](O[C@@H]3[C@@H](O)[C@H](N)C[C@H](N)[C@H]3O[C@H]3O[C@@H]4CO[C@@H](CCc5ccccc5)O[C@H]4[C@H](O)[C@H]3N)O[C@@H]2CO)[C@H](N)[C@@H](O)[C@@H]1O`, the IC50 was 43 ± 11.3 µg/mL (Mycobacterium smegmatis ribosome G1491A; translation, cell-free luciferase synthesis).
`CO[C@@H]1[C@@H](O)[C@H](O[C@H]2CC[C@@]3(C)C(=CC[C@]4(O)[C@@H]3CC[C@]3(C)[C@@H]([C@H](C)O[C@@H]5O[C@H](CO)[C@@H](O)[C@H](OC(=O)CC(C)C)[C@H]5O)CC[C@@]34O)C2)O[C@H](C)[C@@H]1O[C@@H]1O[C@H](CO)[C@@H](O)[C@H](O)[C@H]1O` has an IC50 of greater than 1300 µM (arginine-methylglyoxal glycation; AGE formation, inhibitor).
For `NC[C@@H]1O[C@H](O[C@H]2[C@@H](O)[C@H](O[C@@H]3[C@@H](O)[C@H](N)C[C@H](N)[C@H]3O[C@H]3O[C@H](CO)[C@@H](O)[C@H](O)[C@H]3N)O[C@@H]2CO)[C@H](N)[C@@H](O)[C@@H]1O`, the IC50 was 0.57 ± 0.09 µg/mL (Mycobacterium smegmatis ribosome G1491A; translation, cell-free luciferase synthesis).
`Oc1ccc(/C=C/c2cc(O)cc(O)c2)cc1` gave an IC50 of greater than 25 µg/mL (Sp1 (human); reporter gene, inhibitor; SW1353; control transcription factor).
`CONC(=O)[C@H]1[C@@H](O)[C@@]2(O)c3c(OC)cc(OC)cc3O[C@@]2(c2ccc(OC)cc2)[C@@H]1c1ccccc1` gave an IC50 of 0.272 µM (eIF4A; cap-dependent translation, inhibitor, in vitro translation, bicistronic reporter, measured: firefly luciferase; Krebs-2 cell-free extract; reference: Renilla luciferase (HCV IRES)).
`myricitrin` gave an IC50 of 14 µM (class IIa HDAC (bovine); enzyme activity, inhibitor; bovine heart tissue lysate).
With `CNC(=O)CCC[C@@H](C)C[C@@H](OC(=O)[C@H](C)CCCCO)C(C)(C)C` the IC50 was greater than 10 µM (voltage-gated sodium channels; veratridine-stimulated Na+ influx, antagonist, SBFI fluorescence; primary mouse cerebrocortical neurons).
With `NC[C@@H]1O[C@H](O[C@H]2[C@@H](O)[C@H](O[C@@H]3[C@@H](O)[C@H](N)C[C@H](N)[C@H]3O[C@H]3O[C@H](CO)C[C@H](O)[C@H]3N)O[C@@H]2CO)[C@H](N)[C@@H](O)[C@@H]1O` the IC50 was 2.4 ± 0.1 µg/mL (Mycobacterium smegmatis ribosome G1491A; translation, cell-free luciferase synthesis).
`COC(=O)c1ccc2c(c1)[C@@H](NC(C)=O)CCc1cc(OC)c(OC)c(OC)c1-2` has an IC50 of 2.2 ± 0.09 µM (tubulin, bovine brain; tubulin assembly, inhibitor; 37 °C, tubulin 5 µM, 2% DMSO, with: paclitaxel 5 µM).
`COc1cccc(/C=C/c2ccc(O)cc2)c1` has an IC50 of 25 µg/mL (Sp1 (human); reporter gene, inhibitor; SW1353; control transcription factor).
For `CCCCCCCCCCCCSC[C@H]1O[C@H](O[C@@H]2[C@@H](O)[C@H](O[C@H]3O[C@H](CN)[C@@H](O)C[C@H]3N)[C@@H](N)C[C@H]2N)[C@H](O)[C@@H](N)[C@@H]1O`, the IC50 was greater than 1000 µM (Escherichia coli ribosome wild type; EF-G-dependent translocation, inhibitor, toeprinting).
For `Oc1ccc(/C=C/c2cccc(O)c2)cc1`, the IC50 was greater than 25 µg/mL (Sp1 (human); reporter gene, inhibitor; SW1353; control transcription factor).
`CN[C@@](C)(C[18F])C(=O)O` has a tracer uptake of 1.2 %ID/g (A549 tumour model; host not given, muscle; 30 min, tumour-bearing).
For `Oc1ccc(/C=C/c2ccccc2)cc1O`, the IC50 was greater than 25 µg/mL (Sp1 (human); reporter gene, inhibitor; SW1353; control transcription factor).
The IC50 of `NCC1OC(OC2C(N)CC(N)C(OC3OC(CSc4cccc(F)c4)C(O)C(N)C3O)C2O)C(N)CC1O` (centres unmarked) is reported as 72 µM (Escherichia coli ribosome wild type; EF-G-dependent translocation, inhibitor, toeprinting).
`COc1cc(O)cc(/C=C/c2ccccc2)c1` gave an IC50 of 23 µg/mL (Sp1 (human); reporter gene, inhibitor; SW1353; control transcription factor).
`COc1ccccc1SC[C@H]1O[C@H](O[C@@H]2[C@@H](O)[C@H](O[C@H]3O[C@H](CN)[C@@H](O)C[C@H]3N)[C@@H](N)C[C@H]2N)[C@H](O)[C@@H](N)[C@@H]1O` gave an IC50 of 100 µM (Escherichia coli ribosome wild type; EF-G-dependent translocation, inhibitor, toeprinting).
`COc1cccc(CCc2ccc(O)cc2)c1` has an IC50 of greater than 25 µg/mL (Sp1 (human); reporter gene, inhibitor; SW1353; control transcription factor).
`C1CCN(C23CC4CC(CC2C4)C3)CC1` has an IC50 of greater than 500 µM (NMDA receptor; intracellular calcium, antagonist, Fura-2; cerebellar granule neurons; with: glutamate 100 µM, glycine 10 µM).

Repeated from above:
`CONC(=O)[C@H]1[C@@H](O)[C@@]2(O)c3c(OC)cc(OC)cc3O[C@@]2(c2ccc(OC)cc2)[C@@H]1c1ccccc1` gave an IC50 of 0.272 µM (eIF4A; cap-dependent translation, inhibitor, in vitro translation, bicistronic reporter, measured: firefly luciferase; Krebs-2 cell-free extract; reference: Renilla luciferase (HCV IRES)).
`myricitrin` gave an IC50 of 14 µM (class IIa HDAC (bovine); enzyme activity, inhibitor; bovine heart tissue lysate).
With `CNC(=O)CCC[C@@H](C)C[C@@H](OC(=O)[C@H](C)CCCCO)C(C)(C)C` the IC50 was greater than 10 µM (voltage-gated sodium channels; veratridine-stimulated Na+ influx, antagonist, SBFI fluorescence; primary mouse cerebrocortical neurons).
